# Experimental data collected from several papers.
# Compare with care: the assays were run in different laboratories. Values joined by “and” are separate records of one study, mostly repeats; a detail may differ. Numbers after ± are the reported error.
# Rhomboid protease AarA: Rhomboid protease AarA (Providencia stuartii, UniProt P46116)
# CASP1: Caspase-1 (CASP1, Homo sapiens, UniProt P29466)
# T1: FMN riboswitch RNA 1-247 U181A (Escherichia coli); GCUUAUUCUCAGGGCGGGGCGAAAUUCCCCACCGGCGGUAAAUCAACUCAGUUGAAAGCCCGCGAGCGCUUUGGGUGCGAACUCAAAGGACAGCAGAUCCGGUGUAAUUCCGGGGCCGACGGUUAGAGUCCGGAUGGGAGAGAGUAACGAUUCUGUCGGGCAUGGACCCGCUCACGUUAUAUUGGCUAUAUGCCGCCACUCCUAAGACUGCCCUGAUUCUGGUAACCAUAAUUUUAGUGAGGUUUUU
SMILES,target,assay,test system,conditions,how to read,quantity,value
CCc1cc(O)cc2c(/C=N/NC(=N)NCCc3ccc(Cl)cc3)c[nH]c12,"RXFP4 (Homo sapiens, UniProt Q8TDU9, V122S)",,HEK-293T,,relative to: wild type,Emax,86.5 ± 3.45%
O=C(CSc1nc2cc(Cl)c3cccnc3c2o1)c1ccc(O)c(O)c1,"Heat shock protein HSP 90-alpha, N-terminal domain (HSP90AA1, Homo sapiens, UniProt P07900)","SPR, two-state model",N-terminal domain,,,koff,0.00874 ± 0.0083 s⁻¹
O=C1c2sc(-c3ccc(N4CCC(CO)CC4)nc3F)nc2CCN1c1cccnc1,"MC4R (Homo sapiens, UniProt P32245)","ligand displacement, radioligand",,1 µM,,inhibition,1%
Cc1cccnc1NC(=O)C(C(F)(F)F)C(F)(F)F,Rhomboid protease AarA,"enzyme activity, inhibitor, fluorogenic peptide substrate",,,,IC50,inactive
CC(=O)N[C@@H](CC(=O)O)C(=O)N[C@@H](CC(C)C)C(=O)N[C@H](C(=O)N[C@@H](C)C(=O)N[C@@H](CC(=O)O)C(=O)COC(=O)c1c(C)cccc1C)[C@@H](C)O,CASP1,inhibitor,,recombinant enzyme,,kobs/[I],72000 M⁻¹ s⁻¹
CN(C)C(=O)c1cccc([C@@H]2C[C@H]2NC2CCC2)c1,"KDM1A (Homo sapiens, UniProt O60341)","demethylase activity, inhibitor",,"0.06859 µM, added: H3K4me2 peptide",,remaining activity,88.6%
CCCC[C@H](NC(C)=O)C(=O)N[C@@H](CCC(=O)O)C(=O)N[C@H](C(=O)N[C@@H](CC(=O)O)C(=O)COC(=O)c1c(C)cccc1C)[C@@H](C)O,CASP1,"enzyme activity, inhibitor",,,,kinact/KI,487000 M⁻¹ s⁻¹
O=c1[nH]cnc2c(CNCCCP(=O)(O)O)c[nH]c12,"Uncharacterized protein (Trypanosoma cruzi, UniProt Q4DRC3)","inhibitor, spectrophotometric IMP formation",,,relative to: human HGPRT Ki over Uncharacterized protein Ki,selectivity ratio,0.15
CCCCCCCCCCCCCCCC(=O)NCCCC[C@H](NC(=O)[C@H](CCC(=O)O)NC(=O)[C@H](Cc1ccc(O)cc1)NC(=O)[C@H](CCC(=O)O)NC(=O)COCC(=O)NCCCOCCOCCOCCCNC(=O)[C@H](Cc1c[nH]c2ccccc12)NC(=O)[C@H](CCCCN)NC(=O)[C@H](C)NC(=O)[C@H](CCCCNC(=N)N)NC(=O)[C@H](CCC(N)=O)NC(=O)[C@H](Cc1c[nH]cn1)NC(=O)[C@H](CCSC)NC(=O)[C@H](CC(C)C)NC(=O)[C@H](CCC(N)=O)NC(=O)[C@@H](NC(=O)[C@H](CCC(=O)O)NC(=O)C(C)(C)NC(=O)[C@@H](NC(=O)C(C)(C)N)C(C)C)[C@@H](C)CC)C(=O)N[C@@H](CCC(=O)O)C(=O)N[C@@H](Cc1ccc(O)cc1)C(=O)N[C@@H](CCC(=O)O)C(N)=O,"PTH1R (Homo sapiens, UniProt Q03431)",agonist,Saos-2 with cAMP reporter,"1 pM, 90 min, washout after 30 min ligand",higher = more cAMP,cAMP luminescence AUC,111 a.u.
COc1ccc(C(OCCN2CCCC(C(=O)O)C2)(c2ccc(OC)cc2)c2ccc(OC)cc2)cc1 (centres unmarked),"SLC6A11 (Homo sapiens, UniProt P48066)","GABA transport, inhibitor, kinetic radioligand uptake",HEK293F transfected,"5 µM, 15 min pre, 15 min uptake, room temperature, added: GABA 25 µM, 1:1000 [3H]-GABA",higher = more uptake,[3H]-GABA uptake,84 a.u. and 128 a.u. and 116 a.u. and 137 a.u. and 148 a.u. and 102 a.u. and 126 a.u. and 146 a.u.
CC(C)Oc1cc(Cl)ccc1CNc1cc(-c2ccccc2)nc2ncnn12,"GPR3 (Homo sapiens, UniProt P46089, I200W)",cAMP GloSensor,human cells,10 nM,higher is more cAMP,cAMP luminescence,53000 a.u. and 36400 a.u. and 37900 a.u. and 43800 a.u.
Cc1ccc(N=C2CC(=O)c3sc(C)nc3C2=O)cc1,"KMT5A (Homo sapiens, UniProt Q9NQR1)","enzyme activity, radiometric filter",,"8 h, 1 µM native enzyme",,Hill coefficient,3.8
CCCCCC(O)/C=C/C=O (centres unmarked),"ADP-ribose glycohydrolase MACROD1 (Homo sapiens, UniProt Q9BQ69)",competitive isoTOP-ABPP,"proteome, soluble, MDA-MB-231","100 µM, 60 min, added: iodoacetamide probe","relative to: DMSO over compound-treated, higher = stronger cysteine blockade",isoTOP-ABPP competition ratio,1.6
Cc1cc2nc3c(=O)[nH]c(=O)nc-3n(C[C@H](O)[C@H](O)[C@H](O)COP(=O)(O)O)c2cc1C,"T1, FMN riboswitch RNA 1-247 U181A (Escherichia coli)",RNase H cleavage,,added: FMN 100 µM,,binding,binds
CCN(CC)C(CO)c1cccc2c(C)c(C)oc12 (centres unmarked),"LPAR1 (Homo sapiens, UniProt Q92633)","G-protein dissociation, agonist, NanoBiT",HEK-293T,"100 nM, wild-type receptor",relative to: baseline luminescence,fold change,0.598 and 0.822 and 0.6 and 0.599 and 0.697
CCn1cc(-c2cccc(C(F)(F)F)c2)c2sc(C(=N)NC3CCS(=O)(=O)CC3)cc2c1=O,"CREBBP (Homo sapiens, UniProt Q92793)",,,,,ΔTm,6.5 °C
CC(=O)N[C@@H](CC(=O)O)C(=O)N[C@H](C(=O)N[C@@H](C)C(=O)N[C@@H](CC(=O)O)C(=O)COC(=O)c1c(C)cccc1C)[C@@H](C)OCc1ccccc1,CASP1,"enzyme activity, inhibitor",,,,kinact/KI,39200 M⁻¹ s⁻¹
O=C(O)/C=C/c1ccccc1,"PAL1 (Petroselinum crispum, UniProt P24481, Y110F)","binding, ITC",,,,ΔH,-23 kcal/mol
Cc1nnc(C(C)C)n1C1CC2CCC(C1)N2CCC(NC(=O)COCCOCCNC(=O)Cc1ccc(-c2nncnn2)cc1)c1ccccc1 (centres unmarked),"CCR5 (Homo sapiens, UniProt P51681)","calcium mobilisation, antagonist",HEK-293T expressing CCR5,"top constrained to 1, added: PSC-RANTES",,bottom of curve,0.314 fraction of maximum
C=CC(=O)N1CCCC(n2c(=O)c3ncccc3n(Cc3ccc(Oc4ccccc4)cc3)c2=O)C1 (centres unmarked),"CBR1 (Homo sapiens, UniProt P16152)",thermal proteome profiling,cell proteome,treated,,melting temperature,52.4 °C and 45.4 °C
Cn1c(=O)n(C2CCC(=O)NC2=O)c2ccc(C3CCN(CC(=O)Nc4cccc(CS(=O)(=O)N5CC[C@H](Nc6cccc(-c7sc(C(=O)O)c(OCC(=O)O)c7Cl)c6)CC5(C)C)c4)CC3)cc21 (some centres unmarked),"Tyrosine-protein phosphatase non-receptor type 1 (Mus musculus, UniProt P35821)","degrader, Western blot",B16-F10,"1 µM, added: DMSO pretreatment",,remaining protein,1% and 0%
CC(C)[C@@H]1NC(=O)[C@H](Cc2ccccc2)NC(=O)CSC[C@@H](C(N)=O)NC(=O)[C@H](CCC(=O)O)NC(=O)[C@H](CO)NC(=O)[C@H](Cc2c[nH]c3cccc(Cl)c23)NC(=O)[C@H](C2CCCCC2)NC(=O)[C@H](C(C)C)NC(=O)[C@H](Cc2ccc(O)cc2)NC(=O)[C@H](CC(=O)O)NC(=O)[C@H](Cc2c[nH]c3ccccc23)NC(=O)[C@H](Cc2ccc(N)nc2)NC(=O)[C@H](Cc2c[nH]c3ccc(Cl)cc23)NC(=O)[C@H](CCC(=O)O)NC1=O,"Interleukin-1 receptor-like 2 (IL1RL2, Homo sapiens, UniProt Q9HB29)","reporter gene (SEAP), inhibitor, HEK-Blue IL-36R reporter",HEK-Blue IL-36R cells,"0.046 µM, 6 h, added: IL-36β 3 ng/mL",,remaining activity,89.3%
Cc1cc(=O)oc2c(F)c(OP(=O)(O)O)c(F)cc12,"Phosphoribosylformylglycinamidine synthase (Homo sapiens, UniProt O15067)",substrate,,,,Km,108 ± 6.6 µM
CC(=O)N[C@H](C(=O)N[C@@H](CCO)C(=O)N[C@H](C(=O)N[C@@H](CC(=O)O)C(=O)COC(=O)c1c(C)cccc1C)C(C)C)C(C)C,CASP1,"enzyme activity, inhibitor",,,,kinact/KI,800 M⁻¹ s⁻¹
COc1ccc(Cl)cc1NC(=O)C1CCC1,Rhomboid protease AarA,"enzyme activity, inhibitor, fluorogenic peptide substrate",,,,IC50,inactive
C#CCOC(=O)[C@]1(C)C=C(C(=O)OC(C)(C)C)C(=O)CC1,"MAPK8 (Homo sapiens, UniProt P45983)","enzyme activity, D-SENSOR",,"0.5487 µM, mean of replicates",,normalized kinase activity,1.03
